Results of several laboratories.
Each numbered part is a random draw from the data of one study; scales do not carry over between parts.

Block 1
Target: Histone acetyltransferase KAT6A, both winged helices, GST fusion (KAT6A, Homo sapiens, UniProt Q92794, residues 1-181)
Method: protein binding microarray
Molecule type: double-stranded DNA, one strand shown
Sample: in vitro
Concentration: not given
Notes: 8-mer, flanks averaged, mean of 2 arrays, mostly near background
Baseline: not given
Direction: higher = stronger binding
Residues (chain): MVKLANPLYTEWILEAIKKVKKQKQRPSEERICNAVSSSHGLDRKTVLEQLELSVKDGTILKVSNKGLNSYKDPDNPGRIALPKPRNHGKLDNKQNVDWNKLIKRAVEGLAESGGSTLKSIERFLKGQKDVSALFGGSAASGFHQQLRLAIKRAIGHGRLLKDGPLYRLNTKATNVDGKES
| Sequence | E-score |
| --- | --- |
| ACGGTTTA | 0.139 |
| CATCAACA | 0.0978 |
| GATACCCA | -0.107 |
| CCAGCTCG | -0.0923 |
| ACACTAGT | -0.113 |
| ACAGCTCT | -0.241 |
| ACCCTGAT | -0.142 |
| GGCAGGAA | -0.0992 |
| GACAGGCA | -0.142 |
| AATCGTCG | 0.0195 |
| ACACGGTA | 0.206 |
| CAGTGATC | -0.0758 |
| AGCAGGAT | -0.28 |
| ATTCTAAC | -0.154 |
| AGTTATAG | -0.107 |
| ATTAGGGA | -0.178 |
| CGGCCAAG | 0.139 |
| GTAGCAAA | -0.107 |
| CCCCCTAC | -0.218 |
| ACTGCGAG | -0.0561 |
| GAGACAAC | -0.141 |
| TATCTGCA | -0.146 |
| ACCCAAAG | -0.112 |
| ACCTTATG | -0.128 |
| ATTACCCG | 0.151 |

Block 2
Target: Protein C-ets-1 (ETS1, Homo sapiens, UniProt P14921, residues 1-441, full length assumed)
Sequence of UniProt P14921 (whole entry, looked up): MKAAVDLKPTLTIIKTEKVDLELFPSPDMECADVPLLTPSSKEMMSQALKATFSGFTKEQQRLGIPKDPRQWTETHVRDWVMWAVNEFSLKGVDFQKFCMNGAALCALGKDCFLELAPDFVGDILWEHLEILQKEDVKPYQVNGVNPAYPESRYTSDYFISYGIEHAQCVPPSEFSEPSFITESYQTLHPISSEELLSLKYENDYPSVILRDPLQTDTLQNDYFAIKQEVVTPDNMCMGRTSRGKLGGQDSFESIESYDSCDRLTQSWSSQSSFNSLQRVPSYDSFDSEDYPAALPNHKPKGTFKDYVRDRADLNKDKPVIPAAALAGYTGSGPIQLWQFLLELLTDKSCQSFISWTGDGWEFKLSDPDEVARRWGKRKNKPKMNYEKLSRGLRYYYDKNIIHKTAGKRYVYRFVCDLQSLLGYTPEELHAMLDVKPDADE
Method: protein-binding microarray
Molecule type: double-stranded DNA, one strand shown
Sample: in vitro
Concentration: not given
Notes: k-mer, scored over probes, only values ≥0.25
Direction: higher = stronger binding
| Sequence | E-score |
| --- | --- |
| AGCTTCCT | 0.434 |
| CGGTTTCC | 0.422 |
| CCGGACAG | 0.362 |
| CGGACGAC | 0.31 |
| CGGAAGAA | 0.449 |
| CTTCCGGC | 0.495 |
| AAAACCGG | 0.282 |
| ATTTCCTA | 0.411 |
| AGCGGAAG | 0.487 |
| ATCCGCGG | 0.267 |
| ATCCGGTC | 0.481 |
| CGGCCGGA | 0.418 |
| ATCCTTCC | 0.41 |
| CTGGAAAC | 0.296 |
| AATATCCC | 0.251 |
| ATCCGGCG | 0.465 |
| GCCCATCC | 0.309 |

Block 3
Target: Phosphate system positive regulatory protein PHO4, full length, GST-tagged (PHO4, Saccharomyces cerevisiae, UniProt P07270, residues 1-312)
Sequence of UniProt P07270 (whole entry, looked up): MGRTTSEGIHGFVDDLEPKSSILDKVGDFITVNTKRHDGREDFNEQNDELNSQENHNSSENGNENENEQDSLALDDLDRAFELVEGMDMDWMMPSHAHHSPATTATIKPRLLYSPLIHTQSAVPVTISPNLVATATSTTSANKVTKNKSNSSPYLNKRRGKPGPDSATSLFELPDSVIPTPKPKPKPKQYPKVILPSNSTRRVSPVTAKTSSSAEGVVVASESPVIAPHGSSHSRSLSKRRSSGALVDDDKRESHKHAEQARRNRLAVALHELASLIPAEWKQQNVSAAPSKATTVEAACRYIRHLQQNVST
Method: competition protein-binding microarray
Molecule type: double-stranded DNA, one strand shown
Sample: in vitro
Concentration: 2 µM
Notes: whole 60-bp probe, lowest competitor level
Added: Cbf1 competitor, 0.05 µM
Direction: higher = stronger binding
| Sequence | fluorescence intensity [a.u.] |
| --- | --- |
| TTGGAAAGTGGCGATCTTGTGACGGTCAACGATGATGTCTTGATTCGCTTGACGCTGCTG | 3950 |
| TAGCTGCTCCATTAAGGCGTGATGGACTATGGAGAGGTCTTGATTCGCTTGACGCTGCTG | 7100 |
| CATACCCAACCTTGTCAGGTGGGTGAAGATATTTGTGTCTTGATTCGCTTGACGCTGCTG | 5560 |
| AGATGATTAAGACATCTCGTGGAGGAATCATCATCTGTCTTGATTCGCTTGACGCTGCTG | 8250 |
| ATGGGGGCATAATCGCACGATGTGCAAGCTGAGTGTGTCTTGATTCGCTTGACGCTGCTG | 13300 |
| CTAACGAAGGTTTTTCACGTGAACTACAAGCCAAGTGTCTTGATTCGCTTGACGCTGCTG | 9430 |
| TTATCTGTTTTAATTGGCGTGGGTAAGTGGGGTAGGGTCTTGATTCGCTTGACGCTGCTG | 6180 |
| GATTCCTCATCTCGTCAGGTGATATTTGCATTCTATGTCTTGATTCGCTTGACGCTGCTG | 3800 |
| TGCGCAACAACTTGCCTCGTGGGTGTATGTCTAGAAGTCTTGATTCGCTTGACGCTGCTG | 13300 |
| CTTTCCCGATCTTGGAGTGTGGGTGTAGCACATTTGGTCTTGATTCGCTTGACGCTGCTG | 5600 |
| GTCTTGTCTCATTGAATTGTGGGTGTCCCCACTTCAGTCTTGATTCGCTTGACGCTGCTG | 4810 |
| ATACGGCAGCAGCCTTTCGTGCTTTCCGCCTATTTTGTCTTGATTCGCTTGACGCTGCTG | 4270 |
| TTCATTGATCGAGAGCGCGTGGAACAAATTCTAGAAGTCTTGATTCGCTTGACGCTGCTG | 9600 |
| TCGCGCCCTGTCAGGAACATGATGTCCGCCATTTGAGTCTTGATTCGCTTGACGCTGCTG | 4900 |
| TAGATCCCTGTCCGTCACCTGAGTGTCCGTTTCAGGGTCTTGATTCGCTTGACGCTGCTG | 3040 |
| AAATTACTAAGTTGTCACTAAACTTACCCCGTATGAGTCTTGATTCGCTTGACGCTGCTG | 3090 |
| AAAGCGGTAATTTGTGTGGTGGGTGCAGATATCTATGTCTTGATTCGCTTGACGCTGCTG | 4950 |
| TGCCCTTGCGCCTGGCACGTTTCAGCTTCTTTCTAAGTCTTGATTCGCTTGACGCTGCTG | 10200 |
| AATACACACAACTCAAACGTGTATAAACGACTTTATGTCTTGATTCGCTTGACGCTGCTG | 10800 |

Block 4
Target: RNA binding protein fox-1 homolog 2, RRM domain, GST-SBP tag (RBFOX2, Homo sapiens, UniProt O43251-10, residues 100-194)
Method: RNA Bind-n-Seq
Molecule type: RNA
Sample: in vitro
Concentration: 365 nM
Notes: natural RNA segment, single round, ends assumed
Baseline: no-protein control
Direction: higher = stronger binding
| Sequence | RBNS enrichment (R) |
| --- | --- |
| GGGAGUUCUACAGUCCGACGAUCUUGGGAAGGCUUUGCGUCCUGCCUGCAGACUUGCUAGAGCUGUGGUGAUUAACCCUGGCUGUUGAAUCACUCCACUGACCAGUCUCCAGCUUGAGUCGGGGACAUGUUAAUGGAAUUCUCGGGUGCCAA | 0.427 |
| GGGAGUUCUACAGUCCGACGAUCCACUAUUUAUUCUUUGUUCCUUUUUCUUUUUGUAAGAAACAUUCACAAAAACCAGUGCAAAACCAUCGUGUGGGCGUCCUGUUUUAUAUUACAAAACUUCCUCUGGAUAUUGGAAUUCUCGGGUGCCAA | 0.447 |
| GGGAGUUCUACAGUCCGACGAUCAGUGUACAGGACAGCUAGGGUAAAGGACAGCUAGUGUACAGGGCUCCAGGAGACUUGGGGAUUUGUGUUUAGCUAUGUGUGGGAAUUUGCAAAUGCUUUGUGCUUUGACUUGGAAUUCUCGGGUGCCAA | 1.61 |
| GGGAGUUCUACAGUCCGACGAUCCGAAAUCAGUGCGCUCCAGCUGAUCUCGUUCCGCCGGUUCCCCUUGGCCGCCAGUUCCGUUCUCCUCACGGGCCGAACGGAACAAGGGGUCCAGCUUGCGGGGGACCCUCUGGAAUUCUCGGGUGCCAA | 1.22 |
| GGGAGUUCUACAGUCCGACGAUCCCCAGAGGUCACUUAGGACUGAGAUGCUCCAAAGUUUGAAGUGCCAAAUAACAUGAAACGUGCUCUGUCGACUCAAUAUUAAAGCCAGGGUGAAGAGUUGCAAACCCCUCUGGAAUUCUCGGGUGCCAA | 1.02 |
| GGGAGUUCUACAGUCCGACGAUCUUUUUAACAUAUUUUAUUUCUGCAGAGGAUAUUGGUAACUUACCAAAGAGAAGCAAUACACAGUAUGUCUGCUUUAGCCUUCUUUUAUUUAUCUCAUCUGCAGAUGUUGAUGGAAUUCUCGGGUGCCAA | 0.469 |
| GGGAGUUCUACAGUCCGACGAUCUAAUAUUAGUUCAAAAUUGUUAAAAAUACCUUUAGAAGGUCUAGUCUAUUAUUGAAAACUCAAUUUUUUCACUUAUAUGGCUUUAAAAUGGAGCUAUUUUGCUACAAUAUUGGAAUUCUCGGGUGCCAA | 0.59 |
| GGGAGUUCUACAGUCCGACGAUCUUGACGUCGUUUUACAAGAAAACAAUGGGGCUGGUUUUGCUUCCCCGUGCAUGAUUUACUCUUAGAGAUGAUUCAGAGGUCACUUCAUUUUUAUUAAACAGUGAACUUGUUGGAAUUCUCGGGUGCCAA | 12.1 |

Block 5
Target: TAR DNA-binding protein 43, full length, His tag (TARDBP, Homo sapiens, UniProt Q13148, residues 1-414)
Method: RNA Bind-n-Seq
Molecule type: RNA
Sample: in vitro
Concentration: 20 nM
Notes: 6-mer, flanks averaged, single round
Added: 150 mM LiCl
Baseline: input library
Direction: higher = stronger binding
| Sequence | 6-mer enrichment (R) |
| --- | --- |
| GCGAGG | 1.15 |
| GCUAUU | 0.972 |
| AGGGUA | 1.06 |
| UAUUGC | 0.981 |
| CCGGGU | 0.982 |
| CUAGUU | 0.928 |
| UGUUCC | 1.04 |
| GAUACG | 0.888 |
| UCUAUG | 0.924 |
| GUUUGU | 1.69 |
| AAUAAU | 1.52 |
| CGACAA | 0.788 |
| AGCUCU | 0.855 |
| AUGUGC | 1.13 |
| AGGUCG | 1 |
| GGCGAA | 0.973 |

For quick reference, copied from above (block 1):
| Sequence | E-score |
| --- | --- |
| TATCTGCA | -0.146 |
| ACTGCGAG | -0.0561 |
| ACGGTTTA | 0.139 |
| CGGCCAAG | 0.139 |
| ATTAGGGA | -0.178 |
| ATTCTAAC | -0.154 |
| CCCCCTAC | -0.218 |
| GACAGGCA | -0.142 |
| AATCGTCG | 0.0195 |
| CATCAACA | 0.0978 |
| AGCAGGAT | -0.28 |
| ATTACCCG | 0.151 |
| GATACCCA | -0.107 |
| ACAGCTCT | -0.241 |
